Published values of several laboratories.
Each numbered part is a random draw from the data of one study; scales do not carry over between parts. Substitutions count along the parent as printed.

Set 1 — technique: RNA Bind-n-Seq; form: RNA; matrix: in vitro; tested at: 365 nM; relative to: no-protein control; direction: higher = stronger binding; measurement: RBNS enrichment (R)
Target: RNA binding protein fox-1 homolog 2, RRM domain, GST-SBP tag (RBFOX2, Homo sapiens, UniProt O43251-10, residues 100-194)
Setting: natural RNA segment, single round, ends assumed
Construct (chain): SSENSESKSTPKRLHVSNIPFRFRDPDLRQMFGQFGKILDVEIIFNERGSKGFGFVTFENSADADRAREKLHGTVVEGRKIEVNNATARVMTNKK
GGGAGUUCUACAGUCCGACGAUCUAAAGCUGUUCCCUGGGGGAUGGCUUGGUAGUGGACUUUCUGGGGUUUGCCUGUUACGCCAGACUCGGACUUCUAAGCUUUAAGUGUGGCCCAGGAGGUUUCUUCUCCCUUGGAAUUCUCGGGUGCCAA: 4.09
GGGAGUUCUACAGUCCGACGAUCUACGUAGGCGAUAUAUGUAAGUGUUCUGAUAACAUGACUCUAAUGGUGUUUAAGUGUUCUGAUAACCUGCUUUUAAUAGUUGUGUAUGCCAAAGUCUUUCCCAGCACCUCUGGAAUUCUCGGGUGCCAA: 0.292
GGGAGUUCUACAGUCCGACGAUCGAAGUAGAAAAGAGUGCUGGACAUAGGAAGGGGGUGCUUGGUUUGAGGGGUUAAUGUGAGGCCUUUUUGAAAAAUGAAUAUUUUGAUAAAAAGAAUUCUUGUUUUAGCACUGGAAUUCUCGGGUGCCAA: 1.06
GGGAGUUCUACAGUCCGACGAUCUGGAAGUAUUUUUUCACAUUUUCUUUGUAUAAAAUUUGUAUUAAACUUAAAUAUCUUUUUGAUGGUGGUGUUUCUUUGUGACUGAGCCAGUAGACUCACACUAUAUGCUUUGGAAUUCUCGGGUGCCAA: 0.918
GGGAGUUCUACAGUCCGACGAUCAGCCAGGCUGCCGUGGUGUCAUUUCUGUCAUCCGUGCUCUGUUUCCUUUUGGAGUUUCUUCUCCACAUUAUCUUUGUUCCUGGGGAAUAAAAACUACCAUUGGACCUAGAUGGAAUUCUCGGGUGCCAA: 0.229
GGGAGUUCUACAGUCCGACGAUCGAGGUUCAGGAUUGCUAAGCGAGUGCUCUACCACUGAUGUGCAUCCUUAGUCCUUGUUUGCUUUCUAAACCAAACUGGGAACACAUACAACAUUCAUCAUUUUACAUCCAUGGAAUUCUCGGGUGCCAA: 0.465
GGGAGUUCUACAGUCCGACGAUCUUAUGGUAUAACUGGGUCCCUCAACAGUAACCUGGGCUAAAAUAGGUCUUAUGUGGUUCAACUCCCACCCCCGCCUUCCCCAUAUUUUCAACCACUCUGAUUAUCUUCCCUGGAAUUCUCGGGUGCCAA: 0.836
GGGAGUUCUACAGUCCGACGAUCGCCACCCACCCACAGAUUUGGUUCGGUUUGGUUGUUUACCAGAUCACAUGAUGUCGAUGUCCCAAGGUGAAGGCAACGUCAGGAGUGCCGCAUGUAGGGAGAUGGAGGGAUGGAAUUCUCGGGUGCCAA: 0.715
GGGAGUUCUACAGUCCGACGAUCGGCCUGUGAGCUGUUUUAAAUUAAUUUUUAUAUAUGGUAUGAGGUAAAGAUCUAAAUUCCUAUGGAUAUUCAGUGGUCUUAGCACCAUGUGUUAAAAGGACUGCUUUUCCUGGAAUUCUCGGGUGCCAA: 0.893
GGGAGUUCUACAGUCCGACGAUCGAGGAGACUUCCAGGAAGACACGUGCCUUCUGCCCCCGUGGACCUGCGCUCCUCCCAACACAGACGCAGUGGCCUGCGCAGAGCACUCAGGGCCAGUGCCAUCUGUGAUUUGGAAUUCUCGGGUGCCAA: 0.328
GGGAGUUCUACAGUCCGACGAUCCAACUCCCCAAGAGUGCUUAUUUAAGUGUUAAUACUUUUAAGAGAACUGCGACGAUUAAUUGUGGAUCUCCCCCUGCCCAUUGCCUGCUUGAGGGGCACCACUACUCCAGUGGAAUUCUCGGGUGCCAA: 1.4
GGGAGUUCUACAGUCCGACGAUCUAUUCUGCACACAUAUCGGAAGCAGCAAGCGCUUUACACACUUGAGUAGUGGGAUAAGUCACUGUUUUCUUUACAAAACAAAACAGUCCUGUUGGGAAUGAUUGCUGUUGUGGAAUUCUCGGGUGCCAA: 0.49

Set 2 — technique: protein binding microarray; form: double-stranded DNA, one strand shown; matrix: in vitro; tested at: not given; relative to: not given; direction: higher = stronger binding; measurement: E-score
Target: Histone acetyltransferase KAT6A, both winged helices, GST fusion (KAT6A, Homo sapiens, UniProt Q92794, residues 1-181)
Setting: 8-mer, flanks averaged, mean of 2 arrays, mostly near background
Construct (chain): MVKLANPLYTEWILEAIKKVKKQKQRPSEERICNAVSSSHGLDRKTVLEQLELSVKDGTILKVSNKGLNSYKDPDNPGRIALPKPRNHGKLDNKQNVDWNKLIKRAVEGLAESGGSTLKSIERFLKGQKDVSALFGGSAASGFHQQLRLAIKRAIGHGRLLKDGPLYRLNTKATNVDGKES
CGCTCCAA: 0.0694
TATGTTCA: -0.0066
ACATCATC: -0.11
GCCATTCA: 0.00432
CCGTGGTC: 0.109
AGTCCGAC: 0.1
GATTGAGA: -0.127
CCAAATCA: -0.0369
AATCTGCT: -0.177
CCCATGGA: -0.261
CGTCGCCA: 0.116
CGCGGACA: 0.298
GAGTGCTA: -0.153
AATGCTGT: -0.119
ACGTAGGG: -0.172
AAATGCTC: -0.0859
ACGTGACC: -0.0722
ATAACTGA: -0.00588
AGACTCCG: 0.0871
CGCTACTA: 0.0889
GCCTGGCC: 0.0284
AGCTTTCA: -0.105

Set 3 — technique: universal PBM; form: double-stranded DNA, one strand shown; matrix: in vitro; tested at: 600 nM; direction: higher = stronger binding; measurement: E-score
Target: Sal-like protein 4, full length isoform A (SALL4, Homo sapiens, UniProt Q9UJQ4, residues 1-1053)
Sequence of UniProt Q9UJQ4 (whole entry, looked up): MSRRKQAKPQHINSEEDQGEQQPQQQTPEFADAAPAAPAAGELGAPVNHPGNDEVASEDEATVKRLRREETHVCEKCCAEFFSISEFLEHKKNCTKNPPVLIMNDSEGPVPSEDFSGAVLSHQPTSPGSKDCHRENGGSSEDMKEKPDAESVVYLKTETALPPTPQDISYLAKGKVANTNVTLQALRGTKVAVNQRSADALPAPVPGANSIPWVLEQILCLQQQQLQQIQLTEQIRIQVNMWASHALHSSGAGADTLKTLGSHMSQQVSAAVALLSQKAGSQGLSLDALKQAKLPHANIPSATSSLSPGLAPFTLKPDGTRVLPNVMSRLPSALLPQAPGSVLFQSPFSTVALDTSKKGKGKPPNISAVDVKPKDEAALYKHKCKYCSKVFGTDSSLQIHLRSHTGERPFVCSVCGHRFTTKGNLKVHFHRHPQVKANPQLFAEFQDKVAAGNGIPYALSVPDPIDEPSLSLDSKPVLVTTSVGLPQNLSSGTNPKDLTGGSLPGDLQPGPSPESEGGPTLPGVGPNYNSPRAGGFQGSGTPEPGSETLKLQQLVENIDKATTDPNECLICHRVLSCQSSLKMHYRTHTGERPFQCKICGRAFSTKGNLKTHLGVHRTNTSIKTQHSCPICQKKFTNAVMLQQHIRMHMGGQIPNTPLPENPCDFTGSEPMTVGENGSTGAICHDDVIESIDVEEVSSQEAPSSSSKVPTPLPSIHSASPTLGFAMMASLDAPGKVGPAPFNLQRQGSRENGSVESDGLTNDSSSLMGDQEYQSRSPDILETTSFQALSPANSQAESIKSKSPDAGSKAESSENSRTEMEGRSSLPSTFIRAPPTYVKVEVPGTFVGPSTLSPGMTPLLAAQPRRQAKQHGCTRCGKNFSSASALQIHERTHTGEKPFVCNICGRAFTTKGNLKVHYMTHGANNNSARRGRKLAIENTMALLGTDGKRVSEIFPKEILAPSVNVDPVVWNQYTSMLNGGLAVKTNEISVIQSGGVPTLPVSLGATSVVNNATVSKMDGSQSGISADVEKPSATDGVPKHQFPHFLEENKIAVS
Setting: 8-mer, flanks averaged, mean of replicates
CTAACCGA: -0.162
ACGACGGA: -0.0184
CAGGCGTA: -0.0122
CATTTCGC: 0.0595
AGGTGCCA: -0.196
CATGCGCC: -0.344
GGCATCGA: -0.151
TCGTCAGA: -0.0819
CGTTATAC: 0.148
CACGCTCA: -0.0529
TAAAAGGA: 0.19
ACCACGAG: -0.0896
ATAAAGAT: 0.318
ATAGACCA: 0.0698
ATGTACGA: 0.178
CCCGCCAA: -0.112
AAACGCTA: 0.0348
GAATGAGA: -0.0347
ACGGACAC: -0.178
ACCTTCAA: 0.16
TCAAGAAA: 0.195
CCCTTGGC: -0.355
ATTTGACG: 0.116
CATATTTC: 0.373

Set 4 — target: CCNB1, cyclin fold, Cln2 fusion (human); technique: yeast growth competition, sequencing; matrix: yeast; setting: weak parent motif; relative to: not given; direction: higher = stronger binding; measurement: normalised enrichment score
Parent: SAMHD1 docking peptide (human); ASKSRVQLFKDDP
V6L: 0.355
F9D: 0.338
V6G: 0.273
D11R: 0.39
D11S: 0.85
S4D: 0.226
S2H: 0.55
V6R: 0.237
S2Q: -0.00286
Q7S: -0.000278
V6M: 0.228
K3R: 0.158
D11W: 0.0761
K3F: 0.352
K10H: 0.105
L8Y: 0.284

Set 5 — technique: protein-binding microarray; form: double-stranded DNA, one strand shown; matrix: in vitro; tested at: 250 nM; setting: 60-bp whole probe; together with: salmon DNA 0.4 mg/ml; relative to: random background probes; direction: higher = stronger binding; measurement: log fluorescence; all sequences stand within: GCCTAGCAC … GTCTTGATTCGCTTGACGCTGCTG
Target: Interferon regulatory factor 5, full length, phosphomimetic (IRF5, Homo sapiens, UniProt Q13568-2, residues 1-514, K96S/S451D/S453D/S456D/S462D)
TCAGATTTTGTCCTCCCACTGTGCTAG: 0.222 z-score
TTAGGTATCGACTTTCGGTTCGTGCTA: 9.38 z-score
TTAGGACGGCTTCTCCTTTAGTGCTAG: -0.299 z-score
TTACGTCTCGGTTTCGGTTAGTGCTAG: 9.11 z-score
GACGGACTGGGTCTCGGGATGTGCTAG: -0.51 z-score
CGAGTTTTCTCTCCCATTCTGTGCTAG: 1 z-score
GACGGTCTCGGTTTCGGGTCGTGCTAG: 5.27 z-score
TTTGAACTGGGGACTGGATTAGTGCTA: -0.116 z-score
TCATCTCTGGTTCTTGCACTGTGCTAG: 0.549 z-score
GACGAAATCAGTCTCGAGACGTGCTAG: 0.912 z-score
TTAGGGCTGCTACTGCTTTAGTGCTAG: -0.595 z-score
GACGGTTTCGGGTCCGGGACGTGCTAG: 6.47 z-score
GACGATTTCAGGTCCGAGACGTGCTAG: 0.408 z-score
TTTGGTATCGACACTGGGTTAGTGCTA: 4.3 z-score
TTAGGGTTCCTTTCCCTTTAGTGCTAG: 0.751 z-score
TCAATTTTCAATTCCTGACTGTGCTAG: 1.4 z-score

Set 6 — technique: competition protein-binding microarray; form: double-stranded DNA, one strand shown; matrix: in vitro; tested at: 2 µM; together with: Pho4 competitor, 0.05 µM; direction: higher = stronger binding; measurement: fluorescence intensity
Target: Centromere-binding protein 1, full length, His-tagged (CBF1, Saccharomyces cerevisiae, UniProt P17106, residues 1-351)
Sequence of UniProt P17106 (whole entry, looked up): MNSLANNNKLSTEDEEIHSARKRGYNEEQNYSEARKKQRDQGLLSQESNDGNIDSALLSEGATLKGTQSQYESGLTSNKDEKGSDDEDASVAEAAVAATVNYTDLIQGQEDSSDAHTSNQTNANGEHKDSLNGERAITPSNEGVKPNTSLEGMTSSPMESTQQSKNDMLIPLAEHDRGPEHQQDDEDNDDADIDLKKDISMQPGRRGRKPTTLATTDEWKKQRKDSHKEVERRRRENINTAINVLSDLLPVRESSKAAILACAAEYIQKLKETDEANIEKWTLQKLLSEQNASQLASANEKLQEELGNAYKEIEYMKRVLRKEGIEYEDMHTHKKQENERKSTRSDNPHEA
Setting: whole 60-bp probe, lowest competitor level
AAAGCGGTAATTTGATTTGTGGGTGCAGATATCTATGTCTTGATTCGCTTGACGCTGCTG: 97.7 a.u.
TAATCGGAGACGAGTCACGTGCAAAAAGAAATCATAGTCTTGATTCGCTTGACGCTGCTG: 7470 a.u.
GGGAATACAAACCTTGATGTGACGCTTTAGCCAATAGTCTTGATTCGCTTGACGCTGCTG: 79.5 a.u.
CGTCCTAGTGATTGTCACGTGACTTCCATGAGGAAGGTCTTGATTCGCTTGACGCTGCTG: 24800 a.u.
GGCTTGTGTGAGTTCCACGTGCGGATGACTTAATAAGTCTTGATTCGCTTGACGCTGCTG: 709 a.u.
GTACATGTCCGCCATCACGTGGTGAAGATGTAGTATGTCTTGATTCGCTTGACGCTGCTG: 2350 a.u.
ATGCCATGGGTGTCTCATGTGGTCCAGTGAGTTGATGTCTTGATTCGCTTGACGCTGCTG: 76.2 a.u.
GTCGACCATTTTGCCACCGTGTCTGTGTGCTCGAGCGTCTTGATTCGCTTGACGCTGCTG: 70.5 a.u.
AAAGCGGTAATTTTTCACGTGGTCTCACATATCTATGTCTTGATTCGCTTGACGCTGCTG: 1800 a.u.
AGAGCATAGGTTTGACCCGTGATTGTGCCGACGTCAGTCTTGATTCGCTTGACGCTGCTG: 183 a.u.
TAATTGCGACGGCGTCACCTGGAGAAACGAAAGATGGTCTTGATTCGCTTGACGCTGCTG: 78.8 a.u.
ATTGAATTGGGATATCACATGGTTATTATGGGTCCTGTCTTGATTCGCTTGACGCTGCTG: 686 a.u.
TGCGCAACAACTTGTCACTCCACTTTATGTCTAGAAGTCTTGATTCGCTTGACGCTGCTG: 79.6 a.u.
CTTCTGTAAATTTGGCCTGTGGGTGGACGCGCCCCGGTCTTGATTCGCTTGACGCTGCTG: 74.1 a.u.
TTGCTCCTGGATTGGTTCGTGACTCGGCACTTTACGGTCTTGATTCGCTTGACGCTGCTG: 85.8 a.u.
GTCTTGTCTCATTGGGCAGTGGGTGTCCCCACTTCAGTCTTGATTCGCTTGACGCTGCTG: 78 a.u.
GGCACCCGCGATTCACACGTGTCCAAAAGAGTTCCCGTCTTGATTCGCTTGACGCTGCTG: 1010 a.u.
CCGTTGACTTAGCTTCCTGTGATGCTGGTGTTGTTGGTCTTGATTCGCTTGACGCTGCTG: 73.5 a.u.
TTCAGCCATCCAAGCCATGTGCTTTAAGTCGTCGCTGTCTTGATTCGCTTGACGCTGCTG: 100 a.u.
ACAAGGGCCCTTAAAGGCGTGACTCGAAAAAGGGGCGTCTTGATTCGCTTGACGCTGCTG: 546 a.u.

Some of these lines once more (set 4):
V6G: 0.273
D11R: 0.39
D11S: 0.85
S4D: 0.226
S2H: 0.55
V6R: 0.237
S2Q: -0.00286
Q7S: -0.000278
V6M: 0.228
K3R: 0.158
D11W: 0.0761
K3F: 0.352
